Measurements from different studies.
Each numbered part is a random draw from the data of one study; scales do not carry over between parts. Substitutions count along the parent as printed.
Chain of UniProt P51817 (whole entry, looked up): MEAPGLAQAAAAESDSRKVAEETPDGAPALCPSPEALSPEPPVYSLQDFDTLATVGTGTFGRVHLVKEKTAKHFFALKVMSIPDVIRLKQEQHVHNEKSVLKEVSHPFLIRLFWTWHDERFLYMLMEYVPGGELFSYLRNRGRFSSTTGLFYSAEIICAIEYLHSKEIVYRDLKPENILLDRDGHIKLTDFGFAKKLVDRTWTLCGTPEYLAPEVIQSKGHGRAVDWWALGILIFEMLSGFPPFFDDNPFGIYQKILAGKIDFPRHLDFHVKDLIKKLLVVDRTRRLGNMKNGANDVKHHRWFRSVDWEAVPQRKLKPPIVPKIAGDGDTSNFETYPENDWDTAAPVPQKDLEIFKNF

Set 1 — effect on: binding; technique: phage display NGS; molecule type: peptide; reference: input library
Target: UDP-N-acetylglucosamine--peptide N-acetylglucosaminyltransferase 110 kDa subunit (OGT, Homo sapiens, UniProt O15294)
Chain of UniProt O15294 (whole entry, looked up): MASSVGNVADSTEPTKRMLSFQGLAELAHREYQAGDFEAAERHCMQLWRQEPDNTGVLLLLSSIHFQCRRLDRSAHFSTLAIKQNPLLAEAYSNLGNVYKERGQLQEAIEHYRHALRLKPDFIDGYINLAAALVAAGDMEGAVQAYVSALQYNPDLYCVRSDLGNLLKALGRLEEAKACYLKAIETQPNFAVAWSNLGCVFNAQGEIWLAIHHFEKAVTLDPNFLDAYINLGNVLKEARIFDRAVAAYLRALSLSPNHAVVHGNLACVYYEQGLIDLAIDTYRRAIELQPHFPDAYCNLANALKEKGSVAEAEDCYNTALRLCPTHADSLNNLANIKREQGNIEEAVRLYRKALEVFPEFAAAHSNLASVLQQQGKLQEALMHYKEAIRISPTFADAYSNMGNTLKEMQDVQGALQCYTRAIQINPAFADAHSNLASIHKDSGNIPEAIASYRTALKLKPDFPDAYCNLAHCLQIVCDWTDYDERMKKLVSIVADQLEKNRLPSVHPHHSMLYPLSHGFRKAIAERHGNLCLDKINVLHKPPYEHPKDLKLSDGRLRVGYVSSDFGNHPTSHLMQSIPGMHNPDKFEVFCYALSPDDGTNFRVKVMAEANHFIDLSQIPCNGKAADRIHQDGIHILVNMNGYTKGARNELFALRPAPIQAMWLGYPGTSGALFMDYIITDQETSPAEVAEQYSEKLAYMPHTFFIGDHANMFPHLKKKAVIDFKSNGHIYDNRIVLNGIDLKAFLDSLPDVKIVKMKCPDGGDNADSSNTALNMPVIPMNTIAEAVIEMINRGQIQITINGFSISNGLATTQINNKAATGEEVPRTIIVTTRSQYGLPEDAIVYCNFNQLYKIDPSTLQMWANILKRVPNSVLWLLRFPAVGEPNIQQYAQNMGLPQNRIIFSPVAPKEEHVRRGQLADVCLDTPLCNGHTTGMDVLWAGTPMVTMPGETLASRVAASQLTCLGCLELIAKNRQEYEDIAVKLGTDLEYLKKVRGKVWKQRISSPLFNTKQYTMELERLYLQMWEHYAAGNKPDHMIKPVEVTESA
Under “minimum log2 enrichment ratio”, `VTSENHPHVYMYYHV` is recorded as 1.76.
`RVQIMPVYQIDIPSA`: “minimum log2 enrichment ratio” 3.72.
`NSPFAPKYEITTAWH`: “minimum log2 enrichment ratio” 5.39.
`NVRFPPMYQMVWTSR` — result for “minimum log2 enrichment ratio”: 5.06.
Under “minimum log2 enrichment ratio”, `YQNHTHHVYEVYHV` is recorded as 1.51.
For `THTHFYWQPHHRGV`, “minimum log2 enrichment ratio” read 2.66.
`QFWPMVTHNAHITGG`: “minimum log2 enrichment ratio” 1.6.
`MEEYLPQYTIEVVPI` — result for “minimum log2 enrichment ratio”: 1.38.

Set 2 — target: inorganic phosphate, free oxyanion; technique: microfluidic competitive inhibition; sample: in vitro, cell-free expressed; tested at: not given; direction: lower = stronger binding
Setting: derived from inhibition constants, unchanged parent 615000 nM
Starting sequence: PafA, mature enzyme, eGFP fusion (Elizabethkingia meningoseptica, UniProt Q9KJX5); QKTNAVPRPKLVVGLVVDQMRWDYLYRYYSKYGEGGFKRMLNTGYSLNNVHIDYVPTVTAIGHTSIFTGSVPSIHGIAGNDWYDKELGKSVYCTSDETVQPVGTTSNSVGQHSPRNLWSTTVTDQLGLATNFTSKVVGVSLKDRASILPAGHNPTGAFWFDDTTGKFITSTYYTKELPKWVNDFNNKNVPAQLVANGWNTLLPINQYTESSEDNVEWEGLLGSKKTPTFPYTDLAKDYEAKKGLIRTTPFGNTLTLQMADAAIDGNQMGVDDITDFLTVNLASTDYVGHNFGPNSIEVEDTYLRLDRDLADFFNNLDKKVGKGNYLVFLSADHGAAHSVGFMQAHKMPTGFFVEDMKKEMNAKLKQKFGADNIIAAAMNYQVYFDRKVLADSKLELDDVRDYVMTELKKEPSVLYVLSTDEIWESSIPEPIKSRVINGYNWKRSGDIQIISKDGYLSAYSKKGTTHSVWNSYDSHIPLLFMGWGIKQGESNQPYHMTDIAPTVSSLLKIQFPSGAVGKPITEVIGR
`D233G`: “phosphate dissociation constant” 534 µM.
Under “phosphate dissociation constant”, `F158G` is recorded as 573 µM.
Under “phosphate dissociation constant”, `A331V` is recorded as 458 µM.
`E176G`: “phosphate dissociation constant” 544 µM.
For `S46V`, “phosphate dissociation constant” read 588 µM.
`S471V`: “phosphate dissociation constant” 504 µM.
Under “phosphate dissociation constant”, `S108G` is recorded as 620 µM.
`T274G`: “phosphate dissociation constant” 526 µM.

Further values, each from its own experiment
`N#Cc1c(N)nc(SCC(N)=O)c(C#N)c1-c1ccc(OCC2CC2)cc1` gave a nuclei count of -1.64 z-score (mouse MPNST tumor cells; high-content nuclear imaging, measured: cell number; 10 µM, 12 h, mean of 2 replicates; reference: plate mean, higher = more cells).
`COC[C@H]1OC(=O)c2coc3c2[C@@]1(C)C1=C(C3=O)[C@@H]2CCC(=O)[C@@]2(C)C[C@H]1OC(C)=O` gave a remaining activity of 91.7% (PRKX (Homo sapiens, UniProt P51817); enzyme activity, inhibitor; 0.5 µM; reference: control).
`C[C@]12CC[C@@H](O)C[C@@H]1CC[C@@H]1[C@@H]2CC[C@]2(C)C(=O)CC[C@@H]12` has a nuclei count of 1.75 z-score (mouse MPNST tumor cells; high-content nuclear imaging, measured: cell number; 10 µM, 12 h, mean of 2 replicates; reference: plate mean, higher = more cells).

Some of these lines once more (set 1):
`QFWPMVTHNAHITGG`: “minimum log2 enrichment ratio” 1.6.
